Experimental data gathered from unrelated publications.
A part holds a random share of what one study measured. Positions count from the first letter of the parent shown.

Series 1
Target: vanadate, free oxyanion
Method: microfluidic competitive inhibition
Medium: in vitro, cell-free expressed
Tested at: not given
Notes: derived from inhibition constants, unchanged parent 676 nM
Direction: lower = stronger binding
Starting sequence: PafA, mature enzyme, eGFP fusion (Elizabethkingia meningoseptica, UniProt Q9KJX5); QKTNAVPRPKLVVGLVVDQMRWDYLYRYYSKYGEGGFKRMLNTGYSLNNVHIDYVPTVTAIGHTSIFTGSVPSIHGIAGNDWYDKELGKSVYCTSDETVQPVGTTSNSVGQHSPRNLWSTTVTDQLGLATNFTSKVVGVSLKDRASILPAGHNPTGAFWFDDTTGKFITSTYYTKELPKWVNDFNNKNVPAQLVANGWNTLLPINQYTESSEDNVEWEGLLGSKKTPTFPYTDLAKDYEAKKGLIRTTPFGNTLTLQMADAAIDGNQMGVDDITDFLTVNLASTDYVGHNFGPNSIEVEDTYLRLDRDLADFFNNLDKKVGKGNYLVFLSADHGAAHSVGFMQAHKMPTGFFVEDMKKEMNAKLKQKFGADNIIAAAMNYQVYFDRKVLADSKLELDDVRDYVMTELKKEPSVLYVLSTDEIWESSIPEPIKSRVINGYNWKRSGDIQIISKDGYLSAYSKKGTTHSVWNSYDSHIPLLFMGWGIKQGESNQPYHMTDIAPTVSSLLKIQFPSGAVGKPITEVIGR
Variant | oxyanion analog dissociation constant [nM]
Y83V | 572
A240G | 715
K387G | 995
E354G | 646
L256V | 559
H345G | 696
Y402G | 730
I509V | 864

Series 2
Target: CCNA2, cyclin fold, Cln2 fusion (human)
Method: yeast growth competition, sequencing
Medium: yeast
Notes: strong parent motif
Baseline: not given
Direction: higher = stronger binding
Starting sequence: viral docking peptide; YKVKRRLVFGADD; partner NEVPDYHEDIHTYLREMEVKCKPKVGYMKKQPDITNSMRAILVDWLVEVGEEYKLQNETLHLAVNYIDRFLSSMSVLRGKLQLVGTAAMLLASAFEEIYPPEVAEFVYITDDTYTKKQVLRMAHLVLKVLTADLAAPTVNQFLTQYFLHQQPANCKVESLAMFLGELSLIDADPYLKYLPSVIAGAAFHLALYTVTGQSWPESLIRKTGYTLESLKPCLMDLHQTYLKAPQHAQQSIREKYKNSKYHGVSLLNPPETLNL
Variant | normalised enrichment score
YKVKRRLVFAADD [G10A] | 6.6
YKVKRRLVWGADD [F9W] | 6.17
YKNKRRLVFGADD [V3N] | 1.89
YKVRRRLVFGADD [K4R] | 6.49
YKVKRRLRFGADD [V8R] | 6.19
YKVTRRLVFGADD [K4T] | 4.88
YKVKLRLVFGADD [R5L] | 2.26
YKVKRRLVFLADD [G10L] | 6.09

Series 3
Target: Muscarinic acetylcholine receptor M3 (CHRM3, Homo sapiens, UniProt P20309)
Sequence of UniProt P20309 (whole entry, looked up): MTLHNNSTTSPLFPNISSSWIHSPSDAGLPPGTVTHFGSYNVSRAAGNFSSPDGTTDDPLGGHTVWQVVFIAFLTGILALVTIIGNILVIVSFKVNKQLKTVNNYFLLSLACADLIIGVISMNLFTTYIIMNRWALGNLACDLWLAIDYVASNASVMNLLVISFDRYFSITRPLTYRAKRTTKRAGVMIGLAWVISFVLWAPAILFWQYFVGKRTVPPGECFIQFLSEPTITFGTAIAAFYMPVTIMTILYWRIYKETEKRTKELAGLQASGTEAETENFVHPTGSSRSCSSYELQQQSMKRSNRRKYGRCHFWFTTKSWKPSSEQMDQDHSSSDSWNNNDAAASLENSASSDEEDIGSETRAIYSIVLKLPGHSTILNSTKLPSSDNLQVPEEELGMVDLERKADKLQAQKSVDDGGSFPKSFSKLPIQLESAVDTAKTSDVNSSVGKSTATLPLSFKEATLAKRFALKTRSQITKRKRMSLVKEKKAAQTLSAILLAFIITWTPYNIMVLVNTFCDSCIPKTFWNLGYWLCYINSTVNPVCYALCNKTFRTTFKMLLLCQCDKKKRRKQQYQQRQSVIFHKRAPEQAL
Read-out: binding
Method: radioligand binding
Tested at: 10 µM
SMILES | inhibition [%]
Cc1c(N2CCCC2)nc2ccc(Br)cc2c1C(=O)NC[C@H](CCC(=O)O)c1ccccc1Cl | -0.57
Cc1nccc(COC(=O)N2C[C@@H]3[C@@H](CNC(=O)c4ccc5[nH]nnc5c4)[C@@H]3C2)n1 | -15.3
O=C([C@H]1C[C@H](O)CN1c1ccc(Cl)cc1)N1CC2COCC(C1)N2Cc1ccc(Cl)cc1 | 24.1
C[C@H](NC(=O)c1cnc2n1[C@](C)(Cc1ccc(C#N)cc1)C(=O)N2c1cc(Cl)c(F)c(Cl)c1)C(=O)NC1(c2ccccn2)CC1 | -20.4
CNC(=O)c1cc(C(=O)NC2CC2)cn(Cc2ccccc2)c1=O | 21.4
CC1=C(C#N)C(c2ccc3c(c2)c(NC(=O)c2ccccc2C)nn3C)C(C#N)=C(C)N1 | 9.49
C[C@@]1(Cc2ccc(C#N)cc2)C(=O)N(c2cc(Cl)cc(Cl)c2)c2ncc(C(=O)NC3(c4nc(C5CCC5)no4)CC3)n21 | -17.9
CN([C@@H]1CCc2c(CC(=O)O)c3cc(S(C)(=O)=O)ccc3n2C1)S(=O)(=O)c1ccc(F)cc1 | -13.3
O=C1CCc2cc(Nc3cc(OC4CCOCC4)c([N+](=O)[O-])cc3Cl)ccc2N1 | -11.4
O[C@]1(C(F)(F)F)CCCC[C@H]1Nc1ccc(F)cc1 | 4.73
CN1C(=O)[C@@H](N2CCc3cn(Cc4ccccc4)nc3C2=O)COc2ccccc21 | 0.09
COc1nc2ccc([C@@](O)(c3ccccc3)C3CCN(C(C)=O)CC3)cc2c(Cl)c1Cc1ccc(-n2cccn2)cc1 | 0.49

Mixed results
Structure (SMILES) | target or system | test | test system | conditions | how to read | measurement | value
CC(C)(C)NCC(O)c1ccccc1Cl (stereo not drawn) | mouse MPNST tumor cells | high-content nuclear imaging, refers to: cell number |  | 10 µM, 12 h, mean of 2 replicates | baseline: plate mean, higher = more cells | nuclei count | 1.03 z-score
CN1C(=O)C(=CNc2cccc(Cl)c2)C(=O)NC1=S |  | AlphaScreen signal, AlphaScreen counter screen | His6 peptide without bromodomain | 50 µM, assay interference check |  | inhibition | 13.2%

For quick reference, copied from above (series 3):
SMILES | inhibition [%]
CNC(=O)c1cc(C(=O)NC2CC2)cn(Cc2ccccc2)c1=O | 21.4
CC1=C(C#N)C(c2ccc3c(c2)c(NC(=O)c2ccccc2C)nn3C)C(C#N)=C(C)N1 | 9.49
C[C@@]1(Cc2ccc(C#N)cc2)C(=O)N(c2cc(Cl)cc(Cl)c2)c2ncc(C(=O)NC3(c4nc(C5CCC5)no4)CC3)n21 | -17.9
CN([C@@H]1CCc2c(CC(=O)O)c3cc(S(C)(=O)=O)ccc3n2C1)S(=O)(=O)c1ccc(F)cc1 | -13.3
